{"data": "Experimental data of several laboratories", "note": "Each line is one published result; not all experiments were run side by side.", "chain of UniProt Q15370 (whole entry, looked up)": "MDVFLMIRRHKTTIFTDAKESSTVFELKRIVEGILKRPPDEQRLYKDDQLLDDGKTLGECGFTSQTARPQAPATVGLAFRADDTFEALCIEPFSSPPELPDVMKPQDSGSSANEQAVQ"}
{"Structure (SMILES)": "COc1ccc2ccc3oc([N+](=O)[O-])cc3c2c1Br", "tested on": "Mycobacterium avium subsp. hominissuis", "test": "REMA", "test system": "ATCC 25291", "endpoint": "MIC90", "value": "1 µg/mL"}
{"Structure (SMILES)": "CN[C@H](CC(C)C)C(=O)N[C@H]1C(=O)N[C@@H](CC(N)=O)C(=O)N[C@H]2C(=O)N[C@H]3C(=O)N[C@H](C(=O)N[C@H](C(=O)O)c4cc(O)cc(O)c4-c4cc3ccc4O)[C@H](O)c3ccc(c(Cl)c3)Oc3cc2cc(c3O[C@@H]2O[C@H](CO)[C@@H](O)[C@H](O)[C@H]2O[C@H]2C[C@](C)(N)[C@H](O)[C@H](C)O2)Oc2ccc(cc2Cl)[C@H]1O", "tested on": "Enterococcus faecalis and Enterococcus faecium", "endpoint": "MIC90", "value": "32 µg/mL"}
{"Structure (SMILES)": "CC(=O)N[C@H]1[C@@H](O[C@@H]2O[C@H](C[C@@H](O)[C@H]3O[C@@H](n4ccc(=O)[nH]c4=O)[C@H](O)[C@@H]3O)[C@H](O)[C@H](O)[C@H]2NC(=O)/C=C/CCCCCCCCCC(C)C)O[C@H](CO)[C@@H](O)[C@@H]1O", "tested on": "Bacillus cereus", "test": "microplate alamar blue", "test system": "NRRL B-568", "endpoint": "MIC90", "value": "0.2 µg/mL"}
{"Structure (SMILES)": "COc1cc2c(Oc3ccc4[nH]c(C)cc4c3F)ccnc2cc1OCC1(N)CC1", "test system": "paediatric refractory sarcoma patients", "conditions": "10 mg", "endpoint": "intestinal obstruction incidence", "value": "0%"}
{"Structure (SMILES)": "Cn1c(=O)ccc2ccc(F)c(CCNC[C@H]3CN(c4cnc5c(n4)NC(=O)CO5)C(=O)O3)c21", "tested on": "Helicobacter pylori", "endpoint": "MIC90", "value": "< 0.015 µg/mL"}
{"Structure (SMILES)": "COc1c([N+](=O)[O-])oc2ccc3ccccc3c12", "tested on": "Mycobacterium avium subsp. hominissuis", "test": "REMA", "test system": "ATCC 25291", "endpoint": "MIC90", "value": "> 32 µg/mL"}
{"Structure (SMILES)": "CC[C@H](C)[C@@H]1NC(=O)[C@@H]2CCCN2C(=O)[C@H](CC(C)C)NC(=O)[C@H](CC(C)C)NC(=O)CNC(=O)[C@@H](NC(=O)[C@@H](NC(=O)[C@H](CC(=O)O)NC(=O)CNC(=O)[C@@H](NC(=O)[C@H](C)NC(=O)CNC(=O)[C@H](CCCCN)NC(=O)[C@H](CC(C)C)NC(=O)[C@H](CC(C)C)NC(=O)[C@H](CCCCN)NC(=O)CNC(=O)[C@@H](NC(=O)[C@@H](N)CC(C)C)C(C)C)C(C)C)C(C)C)CSSC[C@@H](C(=O)O)NC1=O", "test": "RNA-seq, item: Cyp4f18 mRNA", "test system": "mouse traumatic brain injury, frontal cortex and hippocampus", "conditions": "dose not given", "scale": "baseline: TBI plus compound vs TBI", "endpoint": "log2 fold change", "value": -3.08}
{"Structure (SMILES)": "CCCCCCCCCCCCN(C)C(=O)CP(=O)(O)O", "tested on": "Bacillus cereus", "test system": "1056 strains", "endpoint": "MIC90", "value": "0.024 µg/mL"}
{"Structure (SMILES)": "COc1c(CCC[P+](c2ccccc2)(c2ccccc2)c2ccccc2)cc2c(c1OC)OCO2.[I-]", "tested on": "UACC-257", "test": "SRB", "endpoint": "TGI", "value": "-5.36 log M"}
{"Structure (SMILES)": "Nc1c([N+](=O)[O-])oc2ccc3ccccc3c12", "tested on": "Mycobacterium avium subsp. hominissuis", "test": "REMA", "test system": "ATCC 25291", "endpoint": "MIC90", "value": "> 32 µg/mL"}
{"Structure (SMILES)": "CCC[C@@H]1C[C@@H](C(=O)N[C@@H]([C@H]2O[C@H](SC)[C@H](O)[C@@H](O)[C@H]2O)[C@H](C)Cl)N(C)C1", "tested on": "Enterococcus faecalis and Enterococcus faecium", "endpoint": "MIC90", "value": "> 32 µg/mL"}
{"Structure (SMILES)": "CCCCCCCC/C=C\\CCCCCCCCNC(=O)CP(=O)(O)O", "tested on": "Bacillus cereus", "test system": "1056", "endpoint": "MIC90", "value": "0.8 µg/mL"}
{"Structure (SMILES)": "COc1cc(CCC[P+](c2ccccc2)(c2ccccc2)c2ccccc2)c(OC)c2c1OCO2.[I-]", "tested on": "OVCAR-3", "test": "SRB", "endpoint": "TGI", "value": "-4.97 log M"}
{"Structure (SMILES)": "CCCCc1c([N+](=O)[O-])oc2ccc3ccccc3c12", "tested on": "Mycobacterium avium subsp. hominissuis", "test": "REMA", "test system": "ATCC 25291", "endpoint": "MIC90", "value": "16 µg/mL"}
{"Structure (SMILES)": "CO[C@H]1C[C@@H]2CC[C@@H](C)[C@@](O)(O2)C(=O)C(=O)N2CCCC[C@H]2C(=O)O[C@H]([C@H](C)C[C@@H]2CC[C@@H](OC(=O)NCCOCCOCCOCCOCCOCCOCCOCCOCCC(=O)N3CCc4cc(Cn5nc(-c6ccc7oc(N)nc7c6)c6c(N)ncnc65)ccc4C3)[C@H](OC)C2)C[C@@H](O)[C@H](C)/C=C(\\C)[C@@H](O)[C@@H](OC)C(=O)[C@H](C)C[C@H](C)/C=C/C=C/C=C/1C", "test system": "patients with advanced solid tumours", "conditions": "intravenous, 1.6 mg/3 mg weekly, any grade", "endpoint": "incidence of Vomiting TRAE", "value": "0%"}
{"Structure (SMILES)": "CCCCCCCCCCCCCCCC(=O)NS(=O)(=O)Oc1ccc(OC)cc1", "tested on": "Bacillus cereus", "test system": "1056", "endpoint": "MIC90", "value": "3.13 µg/mL"}
{"Structure (SMILES)": "C[C@H]1COc2c(N3CCN(C)CC3)c(F)cc3c(=O)c(C(=O)O)cn1c23", "tested on": "Enterococcus faecalis and Enterococcus faecium", "endpoint": "MIC90", "value": "> 32 µg/mL"}
{"Structure (SMILES)": "C[C@H]1CN(c2n[nH]c3nc(N[C@H]4CC[C@H](NS(=O)(=O)CCC(F)(F)F)CC4)ncc23)CCO1", "tested on": "Elongin-B (Homo sapiens, UniProt Q15370)", "test": "Kinobeads competition, item: TCEB2", "conditions": "0.032 µM, unit not given", "scale": "baseline: vehicle", "endpoint": "remaining binding", "value": 0.93}
{"note": "Repeated from above:"}
{"Structure (SMILES)": "C[C@H]1COc2c(N3CCN(C)CC3)c(F)cc3c(=O)c(C(=O)O)cn1c23", "tested on": "Enterococcus faecalis and Enterococcus faecium", "endpoint": "MIC90", "value": "> 32 µg/mL"}
{"Structure (SMILES)": "C[C@H]1CN(c2n[nH]c3nc(N[C@H]4CC[C@H](NS(=O)(=O)CCC(F)(F)F)CC4)ncc23)CCO1", "tested on": "Elongin-B (Homo sapiens, UniProt Q15370)", "test": "Kinobeads competition, item: TCEB2", "conditions": "0.032 µM, unit not given", "scale": "baseline: vehicle", "endpoint": "remaining binding", "value": 0.93}
